# Published values gathered from unrelated publications.
# Numbered parts are unrelated; each lists some results of a single study.

# Set 1 — method: protein binding microarray; form: double-stranded DNA, one strand shown; matrix: in vitro; concentration: not given; relative to: not given; reading: higher = stronger binding
# Target: Histone acetyltransferase KAT6A, winged helix 2, GST fusion (KAT6A, Homo sapiens, UniProt Q92794, residues 85-181)
# Notes: 8-mer, flanks averaged, mean of 2 arrays, mostly near background
# Residues (chain): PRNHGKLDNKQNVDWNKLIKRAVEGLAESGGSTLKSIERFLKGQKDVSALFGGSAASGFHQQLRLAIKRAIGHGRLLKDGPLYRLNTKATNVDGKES
Strand,E-score
ATCGAATA,-0.0866
CTACCAAG,0.0156
CCCCGAGC,0.0686
AAAAGCTT,-0.213
AACTGGCC,0.107
GCGCAGTA,-0.0287
GCGCGGTA,0.0687
CCTGGACC,0.0553
AGATTGTA,-0.0205
GCAAATTA,0.0694
AATCATAT,-0.00266
TGAGGGCA,0.0273
CGTTCGTC,0.0804
CCCTTGTA,-0.0839
ATACAATA,-0.0379
AACTGACA,-0.0741
TGATGGAA,-0.12
ATGGCTGC,0.0419
CGACTGGA,0.0181
CGGTAAAA,0.0303
GTCGGTAA,-0.0962
TACTGATA,0.0535

# Set 2 — method: RNA Bind-n-Seq; form: RNA; matrix: in vitro; concentration: not given; notes: RNA with constant flanks, ends assumed; relative to: input RNA pool; reading: higher = stronger binding
# Target: RING finger protein unkempt homolog, zinc fingers 1-6, GST-SBP tag (UNK, Homo sapiens, UniProt Q9C0B0, residues 30-357)
# Chain of UniProt Q9C0B0 (30-357, looked up): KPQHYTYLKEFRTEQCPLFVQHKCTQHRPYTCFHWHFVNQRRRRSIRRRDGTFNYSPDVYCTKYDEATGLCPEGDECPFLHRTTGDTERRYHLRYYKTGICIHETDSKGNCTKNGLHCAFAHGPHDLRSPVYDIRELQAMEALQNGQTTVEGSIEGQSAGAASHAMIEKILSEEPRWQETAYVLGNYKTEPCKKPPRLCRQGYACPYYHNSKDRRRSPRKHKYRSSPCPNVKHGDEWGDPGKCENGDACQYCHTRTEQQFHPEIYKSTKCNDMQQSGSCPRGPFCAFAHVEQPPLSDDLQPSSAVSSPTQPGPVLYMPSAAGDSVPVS
# All sequences stand within: GGGAGUUCUACAGUCCGACGAUC … CAACAGAGGAUUGAGCAUCA
Strand,bound/input enrichment [ratio]
UCUCUUGCUACUUGCCAGUUAUCUGAGCCAUUAUUGUGGUUCAUUUUGAGAGUAUUGGAUACCCGUGAUGCCUUGAAAGCAUUUCAUGAUAUGGGUGGUGUUCAGCUCAUAUGCAAUAAU,0.184
GAGAAGAUUAUCUGUAAUUUAAAGCCGGCUUUAAAGCUUCGUCUUCGAUUCAUCACGCACAUCCGCAAGAUGGAGCCGGCAGUGCCACCCCAGGCCCUCAACAGCGGGUCUCCAGCACCU,0.144
AGUCUCACGAACGUAGGAAAUUCAUUUAGUGGCCCACCUAAUCCUUUAGUGUCUAGAUCCCGUAAGUUUCAGAACUCAUCAGUAGAAGAUGAUGAUGACGUUGUUUUUAUUGAACCUGUA,2.06
GGCCUGGAGUUCGGCAAGUUGCCAUUUGGUGCCUGUGAAGAUCCUAUCAGUGAACUCCAUUCCGCAACAACGUGGCCUCAUUUGACAGAAGGGAUCAUUGUAGAUAAUGAUGUUUAUUCU,0.172
AGGAGGAAAAUCAUCUUAUCAGACGAAGGCAAAAUGUAUGGUAGGAAUGAAUUGACCGCCAGAUACAUCAAACUCAGGACAGGCAAGACGAGGACCAGAAAACAGGUGUCUAGUCACAUU,0.149
GGAACUGUGGUCCAUGGGAAAGUCUUACAGUAUUACCAGGAGUCUGAGAAACCUGAGGAGUCCGGAUCUGUAACUGUACAAAAAGAAUAUUCAUCCUCCUUUGACCGAGUUAUCAAAGAG,0.183
CUGGCUGGAGUGUAGGCUGUACCCCAUUUCCUUGGCUCCCAUUAAAAAUCAACAACAUUCUAAUGAUCCGGGAACAACAGAAGGGGAACAGUCAUAGGAUAUACGAGCAGUAUAAAGAUA,0.479
GGAGCUUUAUCUAAGGCUAUUGACAGAGGAACAAGGGGCAUUAGUUUUGUCCUCAGUGCGUCCGUAUUUAAUCUUCUCCCUAUUGUGUUUGAGAUGAUGCUUGUCAGUAGUGUUUUGUAU,1.59
UGUCAACACUGCUUUGAACAGUGCUCUGUGAAGUGUAAGUUCUUUUGUCCCAACAGUUGUACCCGCUGUCAUGUGGUUAUUGUCUGAACAAGUCUUUUGAUUUUGUUUUCCUUAAAAAGU,0.142
ACCAUCUAUUCUGCAACCAAGACUUUUGUAGAUUUCUUCUCUCAGUGCCUCCAUGAGGAGUACCGGAGCAAGGGCGUCUUUGUGCAGAGUGUCCUGCCAUACUUCGUAGCUACAAAACUG,0.153
ACCCCCUCUAGGAAGUUAUUUUAUGUAGCAUGUUUGCAUAUACGCAUUGUGUGGCAUGUGCACCGAGGCUUGUUUUACACCUAUCUGCUCAUUUUGUUGUGUUAGCUUUUCUGGUUUAUU,3.91

# Set 3 — method: universal PBM; form: double-stranded DNA, one strand shown; matrix: in vitro; concentration: not given; reading: higher = stronger binding
# Target: Sal-like protein 4, full length isoform B (SALL4, Homo sapiens, UniProt Q9UJQ4-2, residues 1-616)
# Notes: 8-mer, flanks averaged, mean of replicates
# Residues (chain): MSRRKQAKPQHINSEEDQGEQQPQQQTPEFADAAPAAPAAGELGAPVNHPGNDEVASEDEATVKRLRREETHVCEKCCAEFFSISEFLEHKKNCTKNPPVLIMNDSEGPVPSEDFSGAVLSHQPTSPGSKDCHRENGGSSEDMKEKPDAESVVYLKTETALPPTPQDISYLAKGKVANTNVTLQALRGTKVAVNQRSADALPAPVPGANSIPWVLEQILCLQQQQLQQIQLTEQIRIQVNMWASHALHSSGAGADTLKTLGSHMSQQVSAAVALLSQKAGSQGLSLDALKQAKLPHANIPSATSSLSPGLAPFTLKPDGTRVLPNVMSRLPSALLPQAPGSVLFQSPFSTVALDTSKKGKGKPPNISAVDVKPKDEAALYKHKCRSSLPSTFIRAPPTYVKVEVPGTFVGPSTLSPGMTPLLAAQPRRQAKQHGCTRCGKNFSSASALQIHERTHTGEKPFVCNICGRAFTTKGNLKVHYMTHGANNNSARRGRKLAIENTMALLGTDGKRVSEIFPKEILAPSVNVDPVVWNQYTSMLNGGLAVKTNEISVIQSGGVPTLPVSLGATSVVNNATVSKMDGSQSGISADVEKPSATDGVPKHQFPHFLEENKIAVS
Strand,E-score
CATTTCTC,0.0912
CCGTCCAC,-0.22
GTGAGCAA,-0.154
CCTGGCCC,-0.331
ATGATCTG,0.145
ACTGATCG,-0.158
AGCTGTGA,-0.0315
AAGACGTC,0.0457
CGGTAGAG,-0.227
CGTCTCGA,0.00506
CCATGGTC,-0.265
AGTTACCA,0.0673
CCGCGCCC,-0.383
GCGTTCGA,-0.164
TCCATCCA,0.0817
GAGCTGCC,-0.344
GGAGTGAC,-0.00775
TCGTACCA,-0.00344
GCTCAGAA,-0.128
ATTTAGTG,0.188
CAATACGG,-0.116
ACTACGGG,-0.194
AGATAACG,0.139
ATTTCGGA,0.261

# Set 4 — method: RNA Bind-n-Seq; form: RNA; matrix: in vitro; concentration: 365 nM; relative to: no-protein control; reading: higher = stronger binding
# Target: RNA binding protein fox-1 homolog 2, RRM domain, GST-SBP tag (RBFOX2, Homo sapiens, UniProt O43251-10, residues 100-194)
# Notes: natural RNA segment, single round, ends assumed
# All sequences stand within: GGGAGUUCUACAGUCCGACGAUC … UGGAAUUCUCGGGUGCCAA
# Construct (chain): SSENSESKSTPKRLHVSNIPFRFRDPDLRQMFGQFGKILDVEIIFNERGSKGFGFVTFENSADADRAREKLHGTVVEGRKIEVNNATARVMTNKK
Strand,RBNS enrichment (R)
ACUCAUUCCUCCAAGCCCUUGCGCUCCCGUUUCUCUCUCUCUCCGUCCACGUUCCAGCCGAGUCACUGCCUGACCGGCUCCAUGGCAGCUCCCCAUCUUCCCUAGAGGCU,0.869
AGAACCUGUGCCAACUGUGGAGUGGGGAGGUUGGGCCUGGACCCUCAACCCCUGCAACCUUCCCUAGCCCCCUCAAUAGAUGAGCAGGUCAGGCUGUGGCCCUUACCUCA,0.654
UCAUGGUACAUUGCUAAGUCCAUGCUUGUGUGUGUGACAGUAGGCUUGAUAAUUUAUCUUAAAACACAGCAGCAUUGAAAUUUAGGAAAAGAAUAUUAAAUGCCUUUGGA,1.11
GAAGCCAUACGUGGUUGUCUGCCUUCCUGAGCAAGGCUUCUCAUCCCAUAUUAAAGGAUCAUCAUCAUGGUUCUGCAGACACUCCGUGGCUCUGGGCGGUUCGUGCCCUU,0.369
GGCACUUCCCAGCCUGCUUUUGGGAAGGCUCCUAUGGCCCCUGUGGGCACAAUGAAAAUGUUUACACUGAUGCAUGGCAGGGUUCAGCCUGAAUGCUUCUAGCAAAGGUG,21.2
UGAAGCCCUUGCUCCACUGCCACCAGCCCGCCUGCCCCAGUGCAGACUGGUCUUCAGGAGUCAGUAGACCACCGGACCAGGUGUCAGCAUCCACUCCAAGCCAUGCUAGG,0.346
GGCAUGAGGCACUGUCACUUGCUUAGUACAAAGUCCUGGGCUGGAGAGAUGGCUCAGUGGUUAAGAGCACCGACUGCUCUUCCAGAGGUCCUGUGUUCAAUUCCCAGCAA,0.727
AAAGUAUGCCAGGGGAGUAUGUAGCCCGGGGUGGCCCAAUGGGUGUGAGUAUGGGACAGCCGAGUUAUACCCAAGCCCAGAUGCCCCCCCAUCCUGCUCAGCUGCGUCAU,0.527
GAGCGAAGCCCUAUCUGGAGACUUGACUCCAGAGCGAAGGUUCAACUGCGCCUGCAGUCACUAUCCCUACUUUUGUGGUUCAUAGAAGUCUGCAUGUGCGUUGAUUCUGU,0.188
UUGAGGUUUCCAGCCUCUUCCAAGACCUUGCCAGGCUGAGUGGGGCCUGAGAGCUUGCAGGCACUUAAAGCUUCCUGGCAAAGGGGCCGGCCACAGGCAGAGGGAAAGGA,1.01
CCUUCAACCACACCUGGUCUCUUAGAACAUUGUGAACCUAACCUGCACUUGUGUCUCUCAUUUCCUGUGAAUAGUGAUCACUGUCUCAGUGAGCAAACUGGGAGAGGGGC,0.278
GAAACGUAGCAGGUUUCACAUUUUCUGUGUCUCCGACAGGAGCCGCCAUCUCCCGUGAGGCUUACAGAUUUCAAUAUUGGGAACAACUCUAAUCCUCAAACUAAGCCACC,0.243

# Excerpt of the above (set 1):
Strand,E-score
AGATTGTA,-0.0205
GCAAATTA,0.0694
AATCATAT,-0.00266
TGAGGGCA,0.0273
CGTTCGTC,0.0804
CCCTTGTA,-0.0839
ATACAATA,-0.0379
